Measurements pooled from the literature.
Each numbered part is a random draw from the data of one study; scales do not carry over between parts.

Series 1 — method: protein-binding microarray; molecule type: double-stranded DNA, one strand shown; medium: in vitro; concentration: 2540 nM top; notes: 60-bp whole probe; with: salmon DNA 0.4 mg/ml; baseline: random background probes; reading: higher = stronger binding; endpoint: fitted relative affinity
Target: Interferon regulatory factor 3, full length, phosphomimetic (IRF3, Homo sapiens, UniProt Q14653, residues 1-427, S386D/S396D/S398D/S402D/T404D/S405D)
Target sequence (chain): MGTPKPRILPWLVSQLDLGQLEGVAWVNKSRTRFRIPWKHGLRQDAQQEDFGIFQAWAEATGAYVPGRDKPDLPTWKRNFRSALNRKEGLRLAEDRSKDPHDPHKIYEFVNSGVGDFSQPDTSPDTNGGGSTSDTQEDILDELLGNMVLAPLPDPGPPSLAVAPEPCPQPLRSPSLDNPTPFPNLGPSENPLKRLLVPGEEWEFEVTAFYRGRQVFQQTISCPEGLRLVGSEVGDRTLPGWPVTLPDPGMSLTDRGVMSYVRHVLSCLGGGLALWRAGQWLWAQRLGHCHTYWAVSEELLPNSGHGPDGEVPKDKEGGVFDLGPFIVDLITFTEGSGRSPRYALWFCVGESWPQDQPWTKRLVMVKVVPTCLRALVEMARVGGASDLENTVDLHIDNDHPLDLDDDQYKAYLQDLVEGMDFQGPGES
GCCTAGCACGACGGACTGAGTTTCGGGACGTGCTAGGTCTTGATTCGCTTGACGCTGCTG: 1.88 z-score
GCCTAGCACGACGGTATCGTGTTTCGGGACGTGCTAGTCTTGATTCGCTTGACGCTGCTG: 1.99 z-score
GCCTAGCACTTAGATTTCCGGTATCGATTAGTGCTAGTCTTGATTCGCTTGACGCTGCTG: 2.05 z-score
GCCTAGCACTCATATATGAATATATAACTGTGCTAGGTCTTGATTCGCTTGACGCTGCTG: 0.717 z-score

Series 2 — method: RNA Bind-n-Seq; molecule type: RNA; medium: in vitro; concentration: 200 nM; notes: whole 134-nt RNA, ends assumed; with: 150 mM KCl; baseline: input library; reading: higher = stronger binding; endpoint: log2 enrichment
Target: Fragile X messenger ribonucleoprotein 1, C-terminal low-complexity region (Fmr1, Mus musculus, UniProt P35922)
All sequences stand within: GGGAGUUCUACAGUCCGACGAUC … UGGAAUUCUCGGGUGUCAAGG
UGGCCCUGGUGGCAUGCGGGGAGGAAGAGGUGGCCUCAUGGAUCGUGGUGCUCCCGGUGGAAUGUUCAGAGGUGGCCGUGGUGGAGACAG: 0.824
UCAAGUCCUGUGCUACACAUCGUAUGUACCGAAUCGGAGGAAAAAGGUUUUUGGAAAGUAUUAUGUUACGCCGUUCGGAUCUGCACUUCC: -0.675
CAAGUCCUGUGCUACACAUCGUAUGUACCGAAUCGGAAAAAAAGGUGGAAAAAGGAAAGUAUUAUGUUACGCCGUUCGGAUCUGCACUUC: -0.699
UGGAUUUUCAAGACACGAAUGCUCGGAGUCUGGCAGAAAGGAAGAGAGAAGAGGAGAAGCAGAAGCACUUGGAUAAAAUUUAUCAAGAAA: -0.457
GUCCUGUGCUACACAUCGUAUGUACCGAAUCGGGGAAAGGGGUUUUUGGGGUUUGGGGAAAGUAUUAUGUUACGCCGUUCGGAUCUGCAC: 0.587
AAGUCCUGUGCUACACAUCGUAUGUACCGAAUCGGAAAAAAAGGAGGAAAAAAAGGAAAGUAUUAUGUUACGCCGUUCGGAUCUGCACUU: -0.702

Series 3 — method: competition protein-binding microarray; molecule type: double-stranded DNA, one strand shown; medium: in vitro; concentration: 2 µM; with: Cbf1 competitor, 0.05 µM; reading: higher = stronger binding; endpoint: fluorescence intensity
Target: Phosphate system positive regulatory protein PHO4, full length, GST-tagged (PHO4, Saccharomyces cerevisiae, UniProt P07270, residues 1-312)
Notes: whole 60-bp probe, lowest competitor level
Target sequence (chain): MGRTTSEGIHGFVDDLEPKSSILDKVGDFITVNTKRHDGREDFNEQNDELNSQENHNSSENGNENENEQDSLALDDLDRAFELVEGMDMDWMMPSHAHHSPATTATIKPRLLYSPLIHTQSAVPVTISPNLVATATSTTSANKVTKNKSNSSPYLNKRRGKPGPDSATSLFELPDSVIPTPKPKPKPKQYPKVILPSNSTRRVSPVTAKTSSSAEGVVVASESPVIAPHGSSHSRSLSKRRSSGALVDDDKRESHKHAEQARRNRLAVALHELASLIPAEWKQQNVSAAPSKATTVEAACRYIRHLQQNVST
CAGAAACCAACGATGCATGTGTGGGTTTGCATATGAGTCTTGATTCGCTTGACGCTGCTG: 8470 a.u.
CTTCTGTAAATTTGATGAGTGGGTGGACGCGCCCCGGTCTTGATTCGCTTGACGCTGCTG: 4620 a.u.
CTAACGAAGGTTTGCCCAGTGGGTGACAAGCCAAGTGTCTTGATTCGCTTGACGCTGCTG: 3840 a.u.
CCGACGTTGGCTTATTATGTGACGGATTGTTTTCAGGTCTTGATTCGCTTGACGCTGCTG: 3370 a.u.

Other studies, line by line
PhoQ, residues 284 288 289 292 302 303 TNSAEL
fold induction (PhoP, residues 12 14 15 18 19 AGCRL (Escherichia coli, UniProt P23836); Sort-seq, refers to: YFP reporter; E. coli; PhoQ-PhoP variant library, with: 10 µM Mg2+; baseline: high Mg2+ state, higher = stronger signaling): 6.61
